Measurements from different studies.
Numbered parts are unrelated; each lists some results of a single study. “And” joins repeats or separate records; there may be more than shown.
Chain of UniProt Q9UK32 (whole entry, looked up): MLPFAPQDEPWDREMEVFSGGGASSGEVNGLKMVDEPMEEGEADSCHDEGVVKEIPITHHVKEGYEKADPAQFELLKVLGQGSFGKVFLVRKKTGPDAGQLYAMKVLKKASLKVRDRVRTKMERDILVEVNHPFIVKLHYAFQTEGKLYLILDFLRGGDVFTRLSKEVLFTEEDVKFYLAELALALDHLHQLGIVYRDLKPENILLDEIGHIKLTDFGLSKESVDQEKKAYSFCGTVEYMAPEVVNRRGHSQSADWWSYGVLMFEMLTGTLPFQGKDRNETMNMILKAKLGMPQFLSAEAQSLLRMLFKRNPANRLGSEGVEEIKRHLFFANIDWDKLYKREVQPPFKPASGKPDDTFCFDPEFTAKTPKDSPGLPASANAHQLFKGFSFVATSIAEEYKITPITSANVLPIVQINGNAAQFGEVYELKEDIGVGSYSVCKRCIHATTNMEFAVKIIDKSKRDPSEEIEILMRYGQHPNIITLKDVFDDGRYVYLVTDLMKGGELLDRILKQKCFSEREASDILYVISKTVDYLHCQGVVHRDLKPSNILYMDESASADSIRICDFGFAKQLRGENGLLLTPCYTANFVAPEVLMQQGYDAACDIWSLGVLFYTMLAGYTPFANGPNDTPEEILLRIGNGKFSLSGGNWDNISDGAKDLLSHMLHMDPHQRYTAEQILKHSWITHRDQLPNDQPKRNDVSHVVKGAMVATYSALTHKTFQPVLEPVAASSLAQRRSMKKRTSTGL
Chain of UniProt P11802 (whole entry, looked up): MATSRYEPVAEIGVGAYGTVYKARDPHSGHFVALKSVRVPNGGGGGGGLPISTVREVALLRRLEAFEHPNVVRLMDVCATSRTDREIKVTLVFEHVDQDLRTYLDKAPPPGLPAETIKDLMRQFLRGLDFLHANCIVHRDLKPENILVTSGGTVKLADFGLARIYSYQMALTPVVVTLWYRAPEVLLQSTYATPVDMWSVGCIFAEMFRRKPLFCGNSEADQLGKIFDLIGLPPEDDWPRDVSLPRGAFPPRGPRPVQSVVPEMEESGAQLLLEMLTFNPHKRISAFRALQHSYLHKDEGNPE
Chain of UniProt Q8WXR4 (whole entry, looked up): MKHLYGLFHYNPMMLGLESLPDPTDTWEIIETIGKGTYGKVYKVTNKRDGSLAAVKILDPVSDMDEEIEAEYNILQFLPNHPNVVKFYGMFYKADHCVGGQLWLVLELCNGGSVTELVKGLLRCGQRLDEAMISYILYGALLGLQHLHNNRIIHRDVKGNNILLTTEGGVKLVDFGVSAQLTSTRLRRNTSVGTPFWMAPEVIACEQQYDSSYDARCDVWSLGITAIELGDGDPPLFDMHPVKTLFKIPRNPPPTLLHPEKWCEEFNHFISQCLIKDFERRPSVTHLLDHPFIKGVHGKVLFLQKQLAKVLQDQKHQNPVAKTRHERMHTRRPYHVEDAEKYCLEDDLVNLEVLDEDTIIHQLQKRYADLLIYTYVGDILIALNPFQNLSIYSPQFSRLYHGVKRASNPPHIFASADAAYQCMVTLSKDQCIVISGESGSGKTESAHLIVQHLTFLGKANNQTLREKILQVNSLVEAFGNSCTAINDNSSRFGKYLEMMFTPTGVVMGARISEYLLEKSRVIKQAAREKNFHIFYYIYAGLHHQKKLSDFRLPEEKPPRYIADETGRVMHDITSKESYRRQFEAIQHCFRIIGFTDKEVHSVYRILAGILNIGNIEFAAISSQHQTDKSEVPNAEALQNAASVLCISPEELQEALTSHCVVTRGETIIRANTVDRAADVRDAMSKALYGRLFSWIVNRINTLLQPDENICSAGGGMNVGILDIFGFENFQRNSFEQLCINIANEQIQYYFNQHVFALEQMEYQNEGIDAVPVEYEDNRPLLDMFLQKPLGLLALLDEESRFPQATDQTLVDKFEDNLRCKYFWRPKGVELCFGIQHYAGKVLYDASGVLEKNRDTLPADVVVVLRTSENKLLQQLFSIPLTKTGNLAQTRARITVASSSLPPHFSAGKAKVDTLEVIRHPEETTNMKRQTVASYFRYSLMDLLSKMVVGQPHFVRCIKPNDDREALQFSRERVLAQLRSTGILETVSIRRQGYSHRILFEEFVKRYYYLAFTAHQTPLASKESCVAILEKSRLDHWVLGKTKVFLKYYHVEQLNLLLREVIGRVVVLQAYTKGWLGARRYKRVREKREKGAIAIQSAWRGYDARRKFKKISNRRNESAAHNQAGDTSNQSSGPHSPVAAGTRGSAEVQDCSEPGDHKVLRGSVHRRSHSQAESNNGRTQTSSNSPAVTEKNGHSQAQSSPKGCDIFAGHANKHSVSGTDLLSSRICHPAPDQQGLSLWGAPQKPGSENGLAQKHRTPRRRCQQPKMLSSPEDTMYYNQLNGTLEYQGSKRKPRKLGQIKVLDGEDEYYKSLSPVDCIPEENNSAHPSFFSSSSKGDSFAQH
Chain of UniProt Q13523 (whole entry, looked up): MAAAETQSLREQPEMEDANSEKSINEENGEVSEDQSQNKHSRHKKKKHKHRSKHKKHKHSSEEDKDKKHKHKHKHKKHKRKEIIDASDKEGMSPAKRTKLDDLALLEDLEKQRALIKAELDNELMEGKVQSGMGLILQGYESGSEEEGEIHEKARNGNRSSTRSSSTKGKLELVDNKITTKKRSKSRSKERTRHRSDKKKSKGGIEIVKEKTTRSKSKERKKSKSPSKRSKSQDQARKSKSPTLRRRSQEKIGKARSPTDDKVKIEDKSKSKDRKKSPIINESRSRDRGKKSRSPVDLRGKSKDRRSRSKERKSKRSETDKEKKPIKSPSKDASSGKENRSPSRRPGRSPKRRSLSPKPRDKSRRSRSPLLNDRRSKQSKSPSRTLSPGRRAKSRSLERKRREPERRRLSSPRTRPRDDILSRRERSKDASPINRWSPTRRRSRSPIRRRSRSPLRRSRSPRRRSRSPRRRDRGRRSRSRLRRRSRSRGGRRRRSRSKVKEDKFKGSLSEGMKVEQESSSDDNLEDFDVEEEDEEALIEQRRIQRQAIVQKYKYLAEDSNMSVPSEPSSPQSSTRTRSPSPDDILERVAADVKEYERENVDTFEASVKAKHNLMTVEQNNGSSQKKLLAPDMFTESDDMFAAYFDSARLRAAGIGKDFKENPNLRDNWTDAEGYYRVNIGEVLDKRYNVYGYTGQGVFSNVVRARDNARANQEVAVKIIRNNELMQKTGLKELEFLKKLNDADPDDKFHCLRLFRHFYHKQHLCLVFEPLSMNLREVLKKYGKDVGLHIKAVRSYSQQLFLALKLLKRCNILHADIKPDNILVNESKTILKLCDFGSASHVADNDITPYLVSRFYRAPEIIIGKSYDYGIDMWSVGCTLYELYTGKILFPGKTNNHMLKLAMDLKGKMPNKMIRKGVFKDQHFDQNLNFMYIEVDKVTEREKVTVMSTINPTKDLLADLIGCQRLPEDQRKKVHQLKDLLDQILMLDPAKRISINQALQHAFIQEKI
Chain of UniProt O94921 (whole entry, looked up): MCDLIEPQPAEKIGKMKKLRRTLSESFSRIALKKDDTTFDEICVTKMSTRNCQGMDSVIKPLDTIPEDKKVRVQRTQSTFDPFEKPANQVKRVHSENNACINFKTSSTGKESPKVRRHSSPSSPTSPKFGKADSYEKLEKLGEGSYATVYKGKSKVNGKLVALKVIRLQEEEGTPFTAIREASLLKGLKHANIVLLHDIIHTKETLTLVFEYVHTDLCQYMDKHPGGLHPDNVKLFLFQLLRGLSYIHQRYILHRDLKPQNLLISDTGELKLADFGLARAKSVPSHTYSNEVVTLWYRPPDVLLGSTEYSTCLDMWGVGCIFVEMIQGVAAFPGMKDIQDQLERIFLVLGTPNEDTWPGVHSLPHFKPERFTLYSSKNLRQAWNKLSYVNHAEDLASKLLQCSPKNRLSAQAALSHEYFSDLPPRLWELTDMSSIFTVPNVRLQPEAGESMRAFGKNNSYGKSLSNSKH
Chain of UniProt Q8IY84 (whole entry, looked up): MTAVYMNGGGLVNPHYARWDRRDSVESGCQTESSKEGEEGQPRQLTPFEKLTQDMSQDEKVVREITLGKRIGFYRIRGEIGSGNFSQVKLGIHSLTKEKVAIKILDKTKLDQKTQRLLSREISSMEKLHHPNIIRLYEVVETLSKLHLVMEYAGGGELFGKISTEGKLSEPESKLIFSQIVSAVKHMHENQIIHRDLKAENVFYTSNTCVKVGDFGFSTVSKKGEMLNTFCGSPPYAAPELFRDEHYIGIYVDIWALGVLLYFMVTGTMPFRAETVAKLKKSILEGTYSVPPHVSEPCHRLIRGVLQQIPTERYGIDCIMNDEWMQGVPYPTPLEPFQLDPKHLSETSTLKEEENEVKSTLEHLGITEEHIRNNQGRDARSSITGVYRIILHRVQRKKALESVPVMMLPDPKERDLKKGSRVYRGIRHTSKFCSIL

Series 1 — technique: competition with immobilised ligand; tested at: 0.1 µM
SMILES: Cc1c[nH]c2nccc(Oc3c(F)cc(Nc4cc(Cl)nc(N)n4)cc3F)c12
It gave 89% for remaining binding (PRPF4B (Homo sapiens, UniProt Q13523); cell-free assay).
eIF-2-alpha kinase GCN2, C-terminal kinase domain (EIF2AK4, Homo sapiens, UniProt Q9P2K8, S808G); cell-free assay — remaining binding: 100%.
Ribosomal protein S6 kinase alpha-4, N-terminal kinase domain (RPS6KA4, Homo sapiens, UniProt O75676); cell-free assay — remaining binding: 100%.
It gave 96% for remaining binding (NEK9 (Homo sapiens, UniProt Q8TD19); cell-free assay).
CSNK1E (Homo sapiens, UniProt P49674); cell-free assay — remaining binding: 64%.
It gave 100% for remaining binding (MYLK4 (Homo sapiens, UniProt Q86YV6); cell-free assay).
It gave 91% for remaining binding (Myosin-IIIb (MYO3B, Homo sapiens, UniProt Q8WXR4); binding).
The remaining binding was 100% (PRKAA1 (Homo sapiens, UniProt Q13131); cell-free assay).
The remaining binding was 89% (DAPK2 (Homo sapiens, UniProt Q9UIK4); cell-free assay).
The remaining binding was 99% (CAMKK1 (Homo sapiens, UniProt Q8N5S9); cell-free assay).
It gave 82% for remaining binding (MAP3K1 (Homo sapiens, UniProt Q13233); cell-free assay).
For CHUK (Homo sapiens, UniProt O15111); cell-free assay: remaining binding read 66%.
PIK3CA (Homo sapiens, UniProt P42336, I800L); cell-free assay — remaining binding: 90%.
The remaining binding was 75% (NIM1K (Homo sapiens, UniProt Q8IY84); cell-free assay).
The remaining binding was 91% (MYLK3 (Homo sapiens, UniProt Q32MK0); cell-free assay).
PIK3CD (Homo sapiens, UniProt O00329); cell-free assay — remaining binding: 51%.
TNIK (Homo sapiens, UniProt Q9UKE5); cell-free assay — remaining binding: 100%.
For FLT3 (Homo sapiens, UniProt P36888, R834Q); cell-free assay: remaining binding read 85%.
CDK14 (Homo sapiens, UniProt O94921); cell-free assay — remaining binding: 100%.
The remaining binding was 95% (ALK (Homo sapiens, UniProt Q9UM73); cell-free assay).
Ribosomal protein S6 kinase alpha-6, N-terminal kinase domain (RPS6KA6, Homo sapiens, UniProt Q9UK32); cell-free assay — remaining binding: 95%.
The remaining binding was 99% (PAK2 (Homo sapiens, UniProt Q13177); cell-free assay).
It gave 100% for remaining binding (PIM3 (Homo sapiens, UniProt Q86V86); cell-free assay).
For Ribosomal protein S6 kinase alpha-2, N-terminal kinase domain (RPS6KA2, Homo sapiens, UniProt Q15349); cell-free assay: remaining binding read 82%.
It gave 89% for remaining binding (MAP3K2 (Homo sapiens, UniProt Q9Y2U5); cell-free assay).

Series 2 — observed: enzyme activity; mode: inhibitor; tested at: 0.5 µM; reference: control
SMILES: CN(C)CCCn1cc(C2=C(c3c[nH]c4ccccc34)C(=O)NC2=O)c2ccccc21
RPS6KA6 (Homo sapiens, UniProt Q9UK32) — remaining activity: 3.97%.
The remaining activity was 113% (HIPK4 (Homo sapiens, UniProt Q8NE63)).
The remaining activity was 83.3% (PDPK1 (Homo sapiens, UniProt O15530)).
It gave 95.3% for remaining activity (MAPKAPK3 (Homo sapiens, UniProt Q16644)).
The remaining activity was 31.9% (PHKG1 (Homo sapiens, UniProt Q16816)).
The remaining activity was 73.3% (Cyclin-dependent kinase 6, with cyclin D3 (CDK6, Homo sapiens, UniProt Q00534)).
For STK17A (Homo sapiens, UniProt Q9UEE5): remaining activity read 86.9%.
The remaining activity was 77.5% (HIPK2 (Homo sapiens, UniProt Q9H2X6)).
TSSK2 (Homo sapiens, UniProt Q96PF2) — remaining activity: 97.3%.
For Cyclin-dependent kinase 4, with cyclin D3 (CDK4, Homo sapiens, UniProt P11802): remaining activity read 67%.
For CAMK2B (Homo sapiens, UniProt Q13554): remaining activity read 74.5%.
The remaining activity was 88.2% (EPHA4 (Homo sapiens, UniProt P54764)).
For WNK3 (Homo sapiens, UniProt Q9BYP7): remaining activity read 98.4%.
It gave 17% for remaining activity (RPS6KA5 (Homo sapiens, UniProt O75582)).
The remaining activity was 97.9% (DYRK3 (Homo sapiens, UniProt O43781)).
It gave 86.8% for remaining activity (EPHB4 (Homo sapiens, UniProt P54760)).
MAP4K4 (Homo sapiens, UniProt O95819) — remaining activity: 55.9%.
The remaining activity was 100% (AXL (Homo sapiens, UniProt P30530)).
Cyclin-dependent kinase 1, with cyclin B (CDK1, Homo sapiens, UniProt P06493) — remaining activity: 92%.
For SRMS (Homo sapiens, UniProt Q9H3Y6): remaining activity read 104%.
It gave 80.8% for remaining activity (STK16 (Homo sapiens, UniProt O75716)).
It gave 87% for remaining activity (BLK (Homo sapiens, UniProt P51451)).
EPHB1 (Homo sapiens, UniProt P54762) — remaining activity: 87.4%.

Series 3 — technique: Vi-Cell counting; time: 6 days; reference: DMSO
SMILES: CC(C)C[C@H]1NC(=O)[C@H](N(C)C(=O)[C@@H](CC2CCC2)NC(=O)[C@H]2C[C@H](F)CN2C(=O)C2(C(F)(F)F)CC(F)(F)C2)CCCCNC(=O)C2(CC2)NC(=O)[C@@H](Cc2cc(Cl)ccc2Cl)N(C)C1=O
NCI-H1299; 20 nM — cell count: 1.03 and 0.92.
HCC4006; 2 µM — cell count: 0.975 and 0.961 and 0.994.
For A549; 2 µM: cell count read 1.03 and 0.896 and 1.01.
It gave 0.969 and 1 and 1.01 for cell count (NCI-H446; 20 nM).

Series 4 — observed: enzyme activity; mode: inhibitor; tested at: 10 µM
Target: Calcium/calmodulin-dependent protein kinase type II subunit alpha (CAMK2A, Homo sapiens, UniProt Q9UQM7)
Chain of UniProt Q9UQM7 (whole entry, looked up): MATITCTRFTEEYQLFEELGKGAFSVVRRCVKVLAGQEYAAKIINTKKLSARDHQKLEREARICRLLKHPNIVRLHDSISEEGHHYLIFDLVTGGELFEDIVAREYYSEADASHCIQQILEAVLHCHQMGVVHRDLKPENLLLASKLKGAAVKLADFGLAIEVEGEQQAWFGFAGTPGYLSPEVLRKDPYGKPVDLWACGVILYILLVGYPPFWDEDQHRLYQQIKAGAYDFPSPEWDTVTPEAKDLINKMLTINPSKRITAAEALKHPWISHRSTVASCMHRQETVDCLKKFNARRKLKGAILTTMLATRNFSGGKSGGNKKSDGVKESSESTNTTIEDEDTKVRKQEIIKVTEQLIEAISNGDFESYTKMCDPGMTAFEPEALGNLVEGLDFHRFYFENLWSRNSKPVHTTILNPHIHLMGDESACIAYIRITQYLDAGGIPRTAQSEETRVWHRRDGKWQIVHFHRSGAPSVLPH
For `CCCCCCCCCCCCCCCC(=O)OC[C@H](COP(=O)([O-])OCC[N+](C)(C)C)OC(=O)CCCCCCCCCCCCCCC`, the inhibition was 21%.
For `CCCCC/C=C/C/C=C/CCCCCCCCCC(=O)O`, the inhibition was -16%.
For `CCCCCCCCCCCCCCCCCC(=O)OC`, the inhibition was 14%.
`C[C@]12CC[C@@H](O)C[C@H]1CC[C@@H]1[C@@H]2[C@@H](O)C[C@@]2(C)[C@H]1CC[C@]2(O)C(=O)CO` has an inhibition of -2%.
`Cc1nccn1CC1CCc2c(c3ccccc3n2C)C1=O` (centres unmarked) gave an inhibition of -2%.
`CCCCCCCCCCCCCCCC[N+](C)(C)CCN(Cc1ccc(OC)cc1)c1ncccn1` gave an inhibition of -10%.
For `CC[C@H]1OC(=O)[C@H](C)[C@@H](O[C@H]2C[C@@](C)(OC)[C@@H](O)[C@H](C)O2)[C@H](C)[C@@H](O[C@@H]2O[C@H](C)C[C@H](N(C)C)[C@H]2O)[C@](C)(O)C[C@@H](C)/C(=N\OCOCCOC)[C@H](C)[C@@H](O)[C@]1(C)O`, the inhibition was -1%.
For `O=C(/C=C/c1ccc(O)c(O)c1)O[C@@H]1C[C@](O)(C(=O)O)C[C@@H](O)[C@H]1O`, the inhibition was 5%.
For `CCN(CC)CCOC(=O)C(c1ccccc1)C1CCCCC1` (centres unmarked), the inhibition was -2%.
For `CCN(CC)CCOCCOC(=O)C(CC)(CC)c1ccccc1`, the inhibition was -12%.

Some of these lines once more (series 2):
For WNK3 (Homo sapiens, UniProt Q9BYP7): remaining activity read 98.4%.
The remaining activity was 100% (AXL (Homo sapiens, UniProt P30530)).
The remaining activity was 97.9% (DYRK3 (Homo sapiens, UniProt O43781)).
For Cyclin-dependent kinase 4, with cyclin D3 (CDK4, Homo sapiens, UniProt P11802): remaining activity read 67%.
It gave 17% for remaining activity (RPS6KA5 (Homo sapiens, UniProt O75582)).
It gave 87% for remaining activity (BLK (Homo sapiens, UniProt P51451)).
The remaining activity was 31.9% (PHKG1 (Homo sapiens, UniProt Q16816)).
It gave 86.8% for remaining activity (EPHB4 (Homo sapiens, UniProt P54760)).
